Experimental data from different studies.
Every numbered part comes from another study and shows a few of its results, in no order. Positions count from the first letter of the parent shown.

Block 1 — method: RNAcompete; molecule type: RNA; medium: in vitro; tested at: 20 nM; notes: 7-mer, probes averaged, single round; reference: mean of 7-mers; reading: higher = stronger binding
Target: PABPC1L2, full length, GST fusion (mouse, UniProt A0ABA7IW68)
Construct (chain): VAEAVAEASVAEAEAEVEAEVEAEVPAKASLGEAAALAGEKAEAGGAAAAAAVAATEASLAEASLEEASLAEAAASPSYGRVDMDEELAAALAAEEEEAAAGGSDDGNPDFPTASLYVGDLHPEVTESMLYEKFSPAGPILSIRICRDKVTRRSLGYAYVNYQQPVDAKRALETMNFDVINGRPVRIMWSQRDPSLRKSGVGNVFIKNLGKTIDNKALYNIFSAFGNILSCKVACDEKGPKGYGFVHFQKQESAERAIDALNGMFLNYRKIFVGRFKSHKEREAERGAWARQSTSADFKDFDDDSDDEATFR
| Sequence | 7-mer Z-score |
| --- | --- |
| CAAUUUA | 0.468 |
| AGGUUGC | -0.0681 |
| AAACCAC | 0.436 |
| ACCGUUA | -0.215 |
| GAACCGC | -0.146 |
| CCCUUGC | -0.483 |
| CCACAUA | -0.179 |
| ACUAUCG | -0.253 |

Block 2 — target: CCNE1, cyclin fold, Cln2 fusion (human); method: yeast growth competition, sequencing; medium: yeast; notes: weak parent motif; reference: not given; reading: higher = stronger binding
Parent: SLBP docking peptide (human); ARYKRKLLINDFG
| Substitution | normalised enrichment score |
| --- | --- |
| L7D | 0.123 |
| G13M | 1.12 |
| D11N | 0.228 |
| L8Y | 0.504 |
| A1V | 1.06 |
| D11G | 0.325 |
| A1M | 1.09 |
| I9E | 0.39 |
| L7T | -0.0508 |
| K4P | -0.383 |

Block 3 — method: RNA Bind-n-Seq; molecule type: RNA; medium: in vitro; tested at: 200 nM; notes: whole 134-nt RNA, ends assumed; with: 150 mM LiCl; reference: input library; reading: higher = stronger binding; all molecules: 7-deaza-guanosine replaces G
Target: Fragile X messenger ribonucleoprotein 1, C-terminal low-complexity region (Fmr1, Mus musculus, UniProt P35922)
Constant ends, left off below: GGGAGUUCUACAGUCCGACGAUC … UGGAAUUCUCGGGUGUCAAGG
| Sequence | log2 enrichment |
| --- | --- |
| CCUGUGCUACACAUCGUAUGUACCGAAUCGGCCCCCCCGGGCCCCCCCGGGGCCCCCCCGGAAAGUAUUAUGUUACGCCGUUCGGAUCUG | 0.276 |
| AGUCCUGUGCUACACAUCGUAUGUACCGAAUCGGGGUGGGGUUUUUGGGGUUUGGGGAAAGUAUUAUGUUACGCCGUUCGGAUCUGCACU | -1.03 |
| CACAGACAACACGCACCCACACAGACACAGAGGGAAGGGGUUGGGAUGGGGACAGGGUGCACAGCAGGGCGGGGUAGGACCCCAGAAACU | -0.843 |
| GCAGGAAGUAAAAACAAAUGGAAAUGCUUCGGAUAGUGGCAGGGGUGGGGGUUGCUAAGGCAAGGGUGGGAUGGGAGUGGGUAAAGAGUU | 1.26 |
| UUCCUCAAGUCCUGUGCUACACAUCGUAUGUACCGAAUCGGUGGAGGUGGAAAGUAUUAUGUUACGCCGUUCGGAUCUGCACUUCCAGCA | -0.985 |
| CUCAAGUCCUGUGCUACACAUCGUAUGUACCGAAUCGGGAGGGAAAGGGUGGGAAAGUAUUAUGUUACGCCGUUCGGAUCUGCACUUCCA | -0.8 |
| GUCCUGUGCUACACAUCGUAUGUACCGAAUCGGGAAAAAGGGAAAAAAAGGGUUUGGGAAAGUAUUAUGUUACGCCGUUCGGAUCUGCAC | -2.4 |

Further values, each from its own experiment
| Molecule | target | assay | system | setting | how to read | endpoint | value |
| --- | --- | --- | --- | --- | --- | --- | --- |
| PhoQ, residues 284 288 289 292 302 303 SVTLVV | PhoP, residues 12 14 15 18 19 LHSVW (Escherichia coli, UniProt P23836) | Sort-seq, item: YFP reporter | E. coli | PhoQ-PhoP variant library, with: 10 µM Mg2+ | reference: high Mg2+ state, higher = stronger signaling | fold induction | 2.98 |

Repeated from above (block 3):
| Sequence | log2 enrichment |
| --- | --- |
| CCUGUGCUACACAUCGUAUGUACCGAAUCGGCCCCCCCGGGCCCCCCCGGGGCCCCCCCGGAAAGUAUUAUGUUACGCCGUUCGGAUCUG | 0.276 |
| GCAGGAAGUAAAAACAAAUGGAAAUGCUUCGGAUAGUGGCAGGGGUGGGGGUUGCUAAGGCAAGGGUGGGAUGGGAGUGGGUAAAGAGUU | 1.26 |
| UUCCUCAAGUCCUGUGCUACACAUCGUAUGUACCGAAUCGGUGGAGGUGGAAAGUAUUAUGUUACGCCGUUCGGAUCUGCACUUCCAGCA | -0.985 |
